Experimental data from different studies.
± marks the error that the study gave.
ABCG2: Broad substrate specificity ATP-binding cassette transporter ABCG2 (ABCG2, Homo sapiens, UniProt Q9UNQ0)
UniProt Q9UNQ0, sequence (whole entry, looked up): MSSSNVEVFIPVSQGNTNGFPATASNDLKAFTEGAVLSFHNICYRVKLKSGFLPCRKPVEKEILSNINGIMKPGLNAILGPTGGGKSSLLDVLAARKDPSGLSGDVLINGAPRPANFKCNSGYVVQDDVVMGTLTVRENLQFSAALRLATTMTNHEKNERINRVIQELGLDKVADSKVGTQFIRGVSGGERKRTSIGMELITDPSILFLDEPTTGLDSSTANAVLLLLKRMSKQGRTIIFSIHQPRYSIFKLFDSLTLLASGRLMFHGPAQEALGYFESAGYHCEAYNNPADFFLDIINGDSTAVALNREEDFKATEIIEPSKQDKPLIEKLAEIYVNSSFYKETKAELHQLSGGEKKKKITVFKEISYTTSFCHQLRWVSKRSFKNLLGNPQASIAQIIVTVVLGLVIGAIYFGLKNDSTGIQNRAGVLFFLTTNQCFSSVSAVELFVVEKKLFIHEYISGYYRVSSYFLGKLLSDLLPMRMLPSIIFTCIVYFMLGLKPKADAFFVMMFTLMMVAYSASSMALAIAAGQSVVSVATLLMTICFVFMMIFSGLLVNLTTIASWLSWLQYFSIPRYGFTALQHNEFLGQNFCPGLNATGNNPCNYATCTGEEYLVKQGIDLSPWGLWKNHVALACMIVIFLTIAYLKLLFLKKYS
UniProt Q86VL8, sequence (whole entry, looked up): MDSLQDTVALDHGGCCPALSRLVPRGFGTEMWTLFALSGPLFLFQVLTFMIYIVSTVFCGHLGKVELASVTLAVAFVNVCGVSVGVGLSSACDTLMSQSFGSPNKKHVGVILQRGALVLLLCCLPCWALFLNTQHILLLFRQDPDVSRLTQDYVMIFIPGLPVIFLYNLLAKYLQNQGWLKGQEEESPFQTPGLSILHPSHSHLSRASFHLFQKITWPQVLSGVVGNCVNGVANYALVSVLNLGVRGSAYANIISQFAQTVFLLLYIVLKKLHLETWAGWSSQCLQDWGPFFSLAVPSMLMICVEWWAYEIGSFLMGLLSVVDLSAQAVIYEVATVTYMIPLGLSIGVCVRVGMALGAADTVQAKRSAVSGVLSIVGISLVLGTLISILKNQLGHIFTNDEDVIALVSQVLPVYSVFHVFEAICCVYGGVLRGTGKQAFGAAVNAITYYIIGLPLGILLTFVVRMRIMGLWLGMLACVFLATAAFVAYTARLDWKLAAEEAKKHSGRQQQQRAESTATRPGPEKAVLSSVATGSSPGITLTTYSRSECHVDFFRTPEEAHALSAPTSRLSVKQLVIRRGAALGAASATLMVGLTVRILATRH
UniProt Q9NPD5, sequence (whole entry, looked up): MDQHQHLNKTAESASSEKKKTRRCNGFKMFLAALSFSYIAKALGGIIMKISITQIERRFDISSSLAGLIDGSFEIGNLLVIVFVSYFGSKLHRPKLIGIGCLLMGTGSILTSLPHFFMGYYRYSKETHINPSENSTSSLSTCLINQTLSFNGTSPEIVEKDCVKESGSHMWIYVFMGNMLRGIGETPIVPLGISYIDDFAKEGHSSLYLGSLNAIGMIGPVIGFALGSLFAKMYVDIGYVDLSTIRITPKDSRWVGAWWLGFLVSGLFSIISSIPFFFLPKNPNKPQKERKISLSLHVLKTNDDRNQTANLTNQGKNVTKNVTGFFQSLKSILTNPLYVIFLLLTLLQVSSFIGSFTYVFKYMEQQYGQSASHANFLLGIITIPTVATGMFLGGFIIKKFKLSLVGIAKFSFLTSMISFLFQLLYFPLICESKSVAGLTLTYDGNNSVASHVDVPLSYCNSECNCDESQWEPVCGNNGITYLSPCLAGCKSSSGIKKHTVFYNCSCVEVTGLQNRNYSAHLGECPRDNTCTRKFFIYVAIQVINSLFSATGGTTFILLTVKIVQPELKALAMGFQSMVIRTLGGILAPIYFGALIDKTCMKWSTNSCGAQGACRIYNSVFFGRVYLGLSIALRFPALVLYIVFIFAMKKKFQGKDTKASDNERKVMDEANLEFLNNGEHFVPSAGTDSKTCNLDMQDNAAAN

SMILES = CC(C)C[C@@H](N)C(=O)N[C@H](CC(C)C)C(=O)N[C@H](Cc1ccccc1)C(=O)N[C@H](Cc1ccccc1)C(N)=O; target or system = NGF-differentiated PC-12 neurons; setting = 40 µM, 24 h; how to read = baseline: untreated; measurement = viability; value = 53%
SMILES = CCOC(=O)c1c(CSc2ccccc2)n(C)c2cc(Br)c(O)c(CN(C)C)c12; target or system = Multidrug and toxin extrusion protein 2 (SLC47A2, Homo sapiens, UniProt Q86VL8); test = transport, inhibitor; system = transiently transfected cells; setting = 100 µM, 10 (unit not given), together with: thiamine; measurement = inhibition; value = 115%
SMILES = CCCCN(CCCNC(=O)c1cc(Nc2ccc(OC)c(OC)c2)nc2ccccc12)Cc1ccccc1; target or system = Vero-E6; test = CellTiter-Glo ATP; setting = concentration not given, 72 h, second round 5-point; how to read = baseline: DMSO 0%, hyamine -100%, more negative, more toxic; measurement = cytotoxicity efficacy; value = 0%
SMILES = CCC(CC)COC(=O)[C@H](C)N[P@](=O)(OC[C@H]1O[C@@](C#N)(c2ccc3c(N)ncnn23)[C@H](O)[C@@H]1O)Oc1ccccc1; target or system = Solute carrier organic anion transporter family member 1B3 (SLCO1B3, Homo sapiens, UniProt Q9NPD5); test = transport, inhibitor; system = transiently transfected cells; setting = 100 µM, 10 (unit not given), together with: CCK-8; measurement = inhibition; value = 107%
SMILES = COc1cc2c(Oc3ccc4[nH]c(C)cc4c3F)ccnc2cc1OCC1(N)CC1; system = paediatric recurrent refractory sarcoma; setting = concentration not given, whole group; measurement = grade 3 Hematuria; value = 2.9%
SMILES = [Cl-].[Cl-].[Pt+2].[Ru+2].c1ccc(-c2nc3ccccc3nc2-c2ccccn2)nc1.c1cnc2c(c1)ccc1cccnc12.c1cnc2c(c1)ccc1cccnc12; target or system = Danio rerio; system = embryos; setting = 75 µM, 0 h; measurement = survival rate; value = 100%
SMILES = CC(=O)N1CCC(C(=O)N2CCN3C(=O)c4cc(-c5ccccc5)ccc4NC(=O)C3C2)CC1 (centres unmarked); target or system = Escherichia coli; system = WP2 uvrA; setting = 5000 µg/plate, together with: without S9; how to read = baseline: vehicle control; measurement = revertant fold increase; value = 0.9
SMILES = C[C@]1(CO)Cc2ncn(-c3ccc(C#N)c(Cl)c3)c2C(=O)O1; system = human; setting = 40 mg multiple doses, fasted; measurement = subjects with drug-related headache; value = 11.1%
SMILES = CC(C)C[C@@H](N)C(=O)N[C@H](Cc1ccccc1)C(=O)N[C@H](Cc1ccccc1)C(=O)N[C@H](C)C(N)=O; target or system = NGF-differentiated PC-12 neurons; setting = 10 µM, 24 h; how to read = baseline: untreated; measurement = viability; value = 98%
SMILES = CCC(CC)COC(=O)[C@H](C)N[P@](=O)(OC[C@H]1O[C@@](C#N)(c2ccc3c(N)ncnn23)[C@H](O)[C@@H]1O)Oc1ccccc1; system = human; setting = intravenous, dose not given; measurement = participants with adverse events; value = 10.3%
SMILES = CO[C@H]1C[C@@H]2CC[C@@H](C)[C@@](O)(O2)C(=O)C(=O)N2CCCC[C@H]2C(=O)O[C@H]([C@H](C)C[C@@H]2CC[C@@H](OC(=O)NCCOCCOCCOCCOCCOCCOCCOCCOCCC(=O)N3CCc4cc(Cn5nc(-c6ccc7oc(N)nc7c6)c6c(N)ncnc65)ccc4C3)[C@H](OC)C2)C[C@@H](O)[C@H](C)/C=C(\C)[C@@H](O)[C@@H](OC)C(=O)[C@H](C)C[C@H](C)/C=C/C=C/C=C/1C; test = phase 1 dose escalation, item: gastric haemorrhage; system = advanced solid tumour patients; setting = intravenous, 16 mg weekly, grade ≥3; measurement = dose-reducing adverse events; value = 25%
SMILES = CCCN1CCN(CCCNC(=O)c2cc3c(Cl)nc4ccccc4c3s2)CC1; target or system = Vero-E6; test = CellTiter-Glo ATP; setting = 72 h, retest 8-point duplicates; how to read = baseline: DMSO 0%, hyamine -100%, more negative, more toxic; measurement = maximum response; value = -21.2%
SMILES = CN/C(=N\[N+](=O)[O-])NCc1cnc(Cl)s1; system = soil; setting = 0 days, nominal 3.3; measurement = recovery; value = 70%
SMILES = O=C1c2c(O)c(=O)ccn2N([C@@H]2c3ccccc3SCc3c2ccc(F)c3F)[C@@H]2COCCN12; system = BALB/c mice, plasma; setting = oral, 5 mg/kg baloxavir marboxil, 2 h; measurement = plasma concentration; value = 42.7 ng/mL
SMILES = CC(C)C[C@@H](N)C(=O)N[C@H](CC(C)C)C(=O)N[C@H](Cc1ccccc1)C(=O)N[C@H](Cc1ccccc1)C(=O)N[C@H](C)C(=O)N[C@H](CCC(=O)O)C(N)=O; target or system = NGF-differentiated PC-12 neurons; setting = 160 µM, 24 h; how to read = baseline: untreated; measurement = viability; value = 91.3%
SMILES = CC(=O)c1c(C)c2cnc(Nc3ccc(C4CCN(CCS(C)(=O)=O)CC4)cn3)nc2n(C2CCCC2)c1=O; system = human, plasma; setting = oral, 50 mg twice daily, day 1, single dose, together with: letrozole; measurement = k_el; value = 5.28e-05 s⁻¹
SMILES = CCCC(C(=O)c1ccc2c(c1)OCO2)N1CCCC1.Cl (racemic); test = LC-MS/MS; system = rat, trunk blood plasma; setting = subcutaneous, 4 mg/kg, 240 min; measurement = plasma concentration; value = 36.4 ± 5.4 ng/mL
SMILES = CCS(=O)(=O)N1CC(CC#N)(n2cc(-c3ncnc4[nH]ccc34)cn2)C1; target or system = ABCG2; test = transport, inhibitor; setting = 50 µM, 5 (unit not given), pH 7, together with: CCK-8; measurement = inhibition; value = 31.8%
SMILES = CCN(CC)CCNC(=O)c1cc(-c2ccc(Br)s2)nc2ccccc12; target or system = Vero-E6; test = CellTiter-Glo ATP; setting = 72 h, first round 5-point; how to read = baseline: DMSO 0%, hyamine -100%, more negative, more toxic; measurement = maximum response; value = -14.4%
SMILES = CCN(CC)C(=O)[C@@H]1C=C2c3cccc4[nH]cc(c34)C[C@H]2N(C)C1; test = item: lack of energy; system = healthy volunteers; setting = dose not given, 0 to 12 h; how to read = baseline: placebo, direction not given; measurement = List of Complaints score; value = 8
SMILES = COc1ccc2c(Sc3ccccc3)c(C(=O)NCCCN3CCCCC3)[nH]c2c1; target or system = Vero-E6; test = CellTiter-Glo ATP; setting = concentration not given, 72 h, retest 8-point duplicates; how to read = baseline: DMSO 0%, hyamine -100%, more negative, more toxic; measurement = cytotoxicity efficacy; value = -18.4%
SMILES = COc1cccc(-c2n[nH]c(SCc3ccccn3)n2)c1OC; target or system = Salmonella typhimurium; test = Ames test, preincubation; system = TA98; setting = 0.031 mg/plate, with rat liver S9; measurement = revertant colonies per plate; value = 30
SMILES = CCN(CC)CCCNC(=O)c1ccc(-c2nc(CN3CCc4ccccc43)c(C)o2)cc1; target or system = Vero-E6; test = CellTiter-Glo ATP; setting = concentration not given, 72 h, second round 5-point; how to read = baseline: DMSO 0%, hyamine -100%, more negative, more toxic; measurement = cytotoxicity efficacy; value = 0%
SMILES = CN1CC[C@@H](c2c(O)cc(O)c3c(=O)cc(-c4ccc(C(F)(F)F)cc4Cl)oc23)[C@@H]1CO; test = item: Hyperglycemia; system = relapsed B-cell malignancies or AML; setting = oral, 100 mg, grade 3-4, continuous dosing; measurement = patients with adverse event; value = 12.5%
SMILES = O=c1ccc2ccccc2o1; target or system = NHEK; test = cell count; setting = concentration not given, 6 h, XBP1 panel; measurement = chance response; value = 0%
SMILES = CCCC(C(=O)c1ccc(O)c(OC)c1)N1CCCC1 (centres unmarked); test = LC-MS/MS; system = rat, trunk blood plasma; setting = subcutaneous, 2 mg/kg MDPV, 240 min; measurement = plasma concentration; value = 86.6 ± 9.3 ng/mL
SMILES = Cc1ccc(-c2cccc(CN3CCCC(c4nc5ccc(C)cc5c(=O)[nH]4)C3)c2)c(C)c1 (centres unmarked); target or system = Vero-E6; test = CellTiter-Glo ATP; setting = 72 h, retest 8-point duplicates; how to read = baseline: DMSO 0%, hyamine -100%, more negative, more toxic; measurement = maximum response; value = -4.12%
SMILES = C[C@H]1CN(N=O)CCc2ccc(Cl)cc21; target or system = TK6; setting = 10 µM, 4 h, together with: hamster liver S9; how to read = baseline: vehicle; measurement = relative survival; value = 81.4%
SMILES = CC1CCN(CCCNC(=O)c2cc(Sc3ccc(F)cc3)nc3ccccc23)CC1; target or system = Vero-E6; test = CellTiter-Glo ATP; setting = concentration not given, 72 h, second round 5-point; how to read = baseline: DMSO 0%, hyamine -100%, more negative, more toxic; measurement = cytotoxicity efficacy; value = 0%
SMILES = C[C@@H]1CCN(C(=O)CC#N)C[C@@H]1N(C)c1ncnc2[nH]ccc12; target or system = ABCG2; test = transport, inhibitor; setting = 100 µM, 5 (unit not given), pH 7, together with: CCK-8; measurement = inhibition; value = 25.3%
SMILES = CCCC(C(=O)c1ccc(O)c(O)c1)N1CCCC1 (centres unmarked); system = rat; setting = subcutaneous, 1 mg/kg MDPV, 40 min; measurement = brain-to-plasma ratio; value = 0.3 ± 0.2
SMILES = CNCCN(C)c1nc(NC(C)c2ccccc2)c2ccccc2n1 (centres unmarked); target or system = Vero-E6; test = CellTiter-Glo ATP; setting = concentration not given, 72 h, retest 8-point duplicates; how to read = baseline: DMSO 0%, hyamine -100%, more negative, more toxic; measurement = cytotoxicity efficacy; value = 0%

Excerpt of the above:
SMILES = CCCCN(CCCNC(=O)c1cc(Nc2ccc(OC)c(OC)c2)nc2ccccc12)Cc1ccccc1; target or system = Vero-E6; test = CellTiter-Glo ATP; setting = concentration not given, 72 h, second round 5-point; how to read = baseline: DMSO 0%, hyamine -100%, more negative, more toxic; measurement = cytotoxicity efficacy; value = 0%
SMILES = CC(C)C[C@@H](N)C(=O)N[C@H](Cc1ccccc1)C(=O)N[C@H](Cc1ccccc1)C(=O)N[C@H](C)C(N)=O; target or system = NGF-differentiated PC-12 neurons; setting = 10 µM, 24 h; how to read = baseline: untreated; measurement = viability; value = 98%
SMILES = CC1CCN(CCCNC(=O)c2cc(Sc3ccc(F)cc3)nc3ccccc23)CC1; target or system = Vero-E6; test = CellTiter-Glo ATP; setting = concentration not given, 72 h, second round 5-point; how to read = baseline: DMSO 0%, hyamine -100%, more negative, more toxic; measurement = cytotoxicity efficacy; value = 0%
